Published values from different studies.
Each line is one published result; not all experiments were run side by side. ± gives the spread as reported.

For `COc1ccc(NC(=O)N[C@@H](Cc2ccc(O)cc2)C(=O)NCC2(c3ccccc3)CC2)cc1`, the EC50 was > 100 µM (N9 mouse microglia; MTT; 24 h, resting conditions).
With `Cc1cc(NC(=O)c2cccc(NC(=O)C3=CC(C)(C)CCC3=O)c2)ccc1Nc1nccc(-c2cccnc2)n1` the EC50 was 3.35 ± 0.37 µM (SH-SY5Y MKK7-activated cells; c-Jun Ser73 phosphorylation, inhibitor, Western blot; 6 h, together with: doxycycline).
With `COc1ccc2nc(SCC(=O)Nc3ccc(SC)cc3)[nH]c2c1` the EC50 was 0.5 µM (human neutrophils; calcium mobilization, agonist).
`CCN1CCN(Cc2ccc(Nc3ncc4c(n3)Sc3ccccc3C(=O)N4C)cc2C(F)(F)F)CC1` gave an EC50 of 3.8 µM (HT-29; cell growth, CellTiter-Glo; 96 h).
`O=C(Nc1ccc([N+](=O)[O-])cc1)N[C@@H](Cc1c[nH]c2ccccc12)C(=O)NCC1(c2ccccn2)CCCCC1` gave an EC50 of 2.3 µM (human neutrophils; chemotaxis, agonist).
With `COC(=O)[C@@]1(C)C=C(C(=O)OCc2cccc(C(=O)Nc3ccc(Nc4nccc(-c5cccnc5)n4)c(C)c3)c2)C(=O)CC1` the EC50 was 7.33 ± 3.6 µM (SH-SY5Y MKK7-activated cells; c-Jun Ser73 phosphorylation, inhibitor, Western blot; 6 h, together with: doxycycline).
`COc1ccc(C2(CNC(=O)[C@H](Cc3c[nH]c4ccccc34)NC(=O)Nc3ccc([N+](=O)[O-])cc3)CCCCC2)cc1` gave an EC50 of 12.4 ± 3.8 µM (human neutrophils; chemotaxis, agonist).
`O=C1Nc2cccc(C#CC3(O)CCNCC3)c2/C1=C/c1cc2ccccc2[nH]1` has an EC50 of < 0.05 µM (C8161.9; invadopodia formation, inhibitor; short-term).
`O=C(Nc1ccc([N+](=O)[O-])cc1)N[C@@H](Cc1c[nH]c2ccccc12)C(=O)NCC1(c2ccccc2)CCCCC1` has an EC50 of 0.05 ± 0.02 µM (human neutrophils; Ca2+ mobilization, agonist; together with: probenecid 2.5 mM).
`COc1ccc2nc(SCC(=O)Nc3ccc(S(N)(=O)=O)cc3)[nH]c2c1` gave an EC50 of 17.2 µM (human neutrophils; calcium mobilization, agonist).
For `COc1ccc(NC(=O)N[C@@H](Cc2ccc(C#N)cc2)C(=O)NCC2(c3ccc(O)cc3)CC2)cc1`, the EC50 was 21.8 µM (N9 mouse microglia; MTT; 24 h, resting conditions).
`Cn1nc(-c2ccc(CC(=O)Nc3cc(C(C)(C)C)on3)cc2)c2c(N)ncnc21` has an EC50 of 20.4 ± 0.51 µM (A549; cell viability).
`COC(=O)[C@@H]1C(c2nc3cc(C)ccc3o2)=Cc2cc3c(cc2[C@H]1c1cc(OC)c(OC)c(OC)c1)OCO3` has a selectivity index of 8.9 (Leishmania; mouse splenocytes; reference: CC50 over amastigote EC50).
`COCCCn1nc(-c2ccc(CC(=O)Nc3cc(C(C)(C)C)on3)cc2)c2c(N)ncnc21` gave an EC50 of 0.3 ± 0.02 µM (KM12; cell viability).
For `COc1cc([C@@H]2c3cc4c(cc3C=C(C=O)[C@H]2C(=O)OCc2ccc(CBr)cc2)OCO4)cc(OC)c1OC`, the selectivity index was 0.7 (Leishmania; mouse splenocytes; reference: CC50 over amastigote EC50).
The EC50 of `N#Cc1ccc(C[C@H](NC(=O)Nc2ccc(O)cc2)C(=O)NCC2(c3ccccc3)CC2)cc1` is reported as > 100 µM (N9 mouse microglia; MTT; 24 h, resting conditions).
`COc1cccc(Nc2c(C(=O)O)c(C)nn(CC(=O)Nc3ccc(Br)cc3)c2=O)c1` gave an EC50 of 1.5 ± 0.5 µM (human neutrophils; calcium flux, agonist).
For `Cc1cc(NC(=O)c2cccc(NC(=O)C3=CC(C)(C)CC3=O)c2)ccc1Nc1nccc(-c2cccnc2)n1`, the EC50 was 6.71 ± 0.98 µM (SH-SY5Y MKK7-activated cells; c-Jun Ser73 phosphorylation, inhibitor, Western blot; 6 h, together with: doxycycline).
The EC50 of `CCOc1ccc2nc(SCC(=O)Nc3ccc(Cl)cc3)[nH]c2c1` is reported as 1.3 µM (human neutrophils; calcium mobilization, agonist).
`C=CC(=O)Nc1cccc(N(C(=O)OCc2ccc(F)cc2)c2ccnc(Nc3ccn(C)n3)n2)c1` gave an EC50 of 0.037 ± 0.0034 µM (Ba/F3 EGFR D770_N771insSVD; cell growth; above 10 µM not active).
The EC50 of `O=C(Nc1ccc([N+](=O)[O-])cc1)N[C@@H](Cc1c[nH]c2ccccc12)C(=O)NCC1(c2ccccc2)CC1` is reported as 22.3 ± 5.4 µM (human neutrophils; chemotaxis, agonist).
The EC50 of `CCc1ccc(NC(=O)CSc2nc3ccc(OC)cc3[nH]2)cc1` is reported as 0.8 µM (human neutrophils; calcium mobilization, agonist).
